Assay results pooled from the literature.
Numbered parts are unrelated; each lists some results of a single study. Substitutions count along the parent as printed.

Sample 1 — target: CCNE2, cyclin fold, Cln2 fusion (human); technique: yeast growth competition, sequencing; matrix: yeast; notes: weak parent motif; reference: not given; direction: higher = stronger binding
Starting sequence: SGO1 docking peptide (human); PLAKRALKYTDEK; partner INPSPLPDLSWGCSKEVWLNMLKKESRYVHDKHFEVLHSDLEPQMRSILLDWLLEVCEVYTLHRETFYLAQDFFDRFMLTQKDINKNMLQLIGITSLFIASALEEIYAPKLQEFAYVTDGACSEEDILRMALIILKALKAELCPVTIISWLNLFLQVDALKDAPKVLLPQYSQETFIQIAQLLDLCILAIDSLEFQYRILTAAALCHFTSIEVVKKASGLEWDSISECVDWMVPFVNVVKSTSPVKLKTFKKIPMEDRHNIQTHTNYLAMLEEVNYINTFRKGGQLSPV
`E12A` — result for “normalised enrichment score”: 0.422.
For `R5A`, “normalised enrichment score” read 0.0771.
For `L7A`, “normalised enrichment score” read 0.0901.
For `K4A`, “normalised enrichment score” read 0.374.
`L2A` — result for “normalised enrichment score”: 0.259.

Sample 2 — technique: EMSA with sequencing; form: double-stranded DNA, one strand shown; matrix: in vitro; concentration: 10 and 20 nM; reference: negative control set to 0; direction: higher = stronger binding
Target: Hepatocyte nuclear factor 3-alpha (Foxa1, Mus musculus, UniProt P35582, residues 1-468, full length assumed)
Notes: whole designed probe, mean of two concentrations, ends assumed
Target sequence (chain): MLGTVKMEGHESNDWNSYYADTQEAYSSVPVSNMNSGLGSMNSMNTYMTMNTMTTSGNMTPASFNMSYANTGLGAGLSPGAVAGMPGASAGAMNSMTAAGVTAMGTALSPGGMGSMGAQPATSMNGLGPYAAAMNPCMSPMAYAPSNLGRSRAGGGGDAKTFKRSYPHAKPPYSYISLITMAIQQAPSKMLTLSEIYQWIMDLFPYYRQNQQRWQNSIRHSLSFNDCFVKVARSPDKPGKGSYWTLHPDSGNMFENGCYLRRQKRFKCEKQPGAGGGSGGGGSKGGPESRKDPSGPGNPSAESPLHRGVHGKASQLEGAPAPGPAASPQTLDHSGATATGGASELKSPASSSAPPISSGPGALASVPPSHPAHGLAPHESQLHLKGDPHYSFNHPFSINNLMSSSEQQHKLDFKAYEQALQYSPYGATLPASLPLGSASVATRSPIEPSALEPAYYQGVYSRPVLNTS
For `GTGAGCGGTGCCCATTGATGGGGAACAAATGGAAAGTACTTTGAAAAGTTTGAAGCTGTATACAATAGCCATCTGTTGTCCTCAAAGTGAGTGGTCCTTGGGGGCAGGCTTGCTACAAAGTAATCTACCTGGGGCAAAAGGTTTTAGTTGTTTAGACAAGAACACACTGCCTTTCATCAGTGTGGGAAAGAACTGGATCGGGAATTAGACCACGTGGGCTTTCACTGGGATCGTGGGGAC`, “normalised bound fraction” read 0.0589 ratio.
`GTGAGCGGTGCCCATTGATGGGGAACTCCTTTATCCCAACATGTTTATACAGACAAAACCAGGTTAAAATCGACACAAGGTCAACTTGAAGAGGAAGGTAAATGGGGAGACGTCACAAAATAAACATGAAGTCTTGTGTACAAGCATCTGCAGAAGAGTTCAGCCTCACCACTTGGGTAATGCTGTTGGAATGTGGTCTGGGTTCACTGTATTTGAATGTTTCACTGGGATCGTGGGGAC`: “normalised bound fraction” 0.378 ratio.
`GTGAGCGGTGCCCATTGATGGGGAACGGCTGTTTAGGTAGCTGGCAGGAAGTAGTATGTGTCTCCAGAGCATAAAATTGGCCGCAAAGTAGGTAGGGCCTATGAAAATACTGATGTAATGTAATCTTTGTATTTCTAAACTATTTACAAGGTCATCCCTACCCTACATGAGAGGTCAGCTCTACCACTAAGAGGTCCCACATGGACTTCTACAATATTCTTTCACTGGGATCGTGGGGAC` — result for “normalised bound fraction”: 0.0151 ratio.
`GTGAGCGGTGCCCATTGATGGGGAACGGCAGCACTTAGCAGCAGCTACAAATAACAATGGAAAGGTTGGAGAACCCATCACATGCCAGACACAGGGCTAAGTGTGCAGATACCGATTTGAGATTACTTTTGCTCTGTAGAAGAATCAGGAGGATGAGGTCTATTTGGTTTTTACTTTTCCCATCGAGTTATCTCCCACTCTGAGACTGAAGCTGGACTTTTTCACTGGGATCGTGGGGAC` — result for “normalised bound fraction”: 0.0323 ratio.
`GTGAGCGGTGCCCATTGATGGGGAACGGAAGGAGAATATCTCTGCTACTTTATTTTTGTGTATTAGCTGATTGTTTCACGTGAAGAATGCTCACATGGTTTTTGCAATGTGCTGGCATAAGATGACATATTGATGCGTAGATGTGTTTGTGTGTTTGGTTTTAGGCAAATGGCACCAAGGCTTGAACTGCGACTCCCGAAGTGACCAGTGCCACCATCCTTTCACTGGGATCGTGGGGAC` — result for “normalised bound fraction”: 0.0157 ratio.

Sample 3 — technique: RNA Bind-n-Seq; form: RNA; matrix: in vitro; concentration: not given; reference: input RNA pool; direction: higher = stronger binding
Target: RING finger protein unkempt homolog, zinc fingers 1-6, GST-SBP tag (UNK, Homo sapiens, UniProt Q9C0B0, residues 30-357)
Notes: RNA with constant flanks, human-mouse chimeric sites, ends assumed
Residues (chain): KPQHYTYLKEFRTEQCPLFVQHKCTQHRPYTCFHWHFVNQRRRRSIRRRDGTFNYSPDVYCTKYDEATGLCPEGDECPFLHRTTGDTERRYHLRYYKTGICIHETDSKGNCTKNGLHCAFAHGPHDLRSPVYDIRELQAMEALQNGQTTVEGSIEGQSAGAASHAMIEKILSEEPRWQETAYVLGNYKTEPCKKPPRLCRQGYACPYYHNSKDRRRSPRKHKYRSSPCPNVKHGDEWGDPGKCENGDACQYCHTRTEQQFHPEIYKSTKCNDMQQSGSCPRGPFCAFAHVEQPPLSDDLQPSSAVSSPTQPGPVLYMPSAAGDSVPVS
For `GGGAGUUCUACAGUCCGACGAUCUGACAAGGGCACUGCAGGGCCAUGCCUUUCCUUGACAUACAGAAAAAGCUGGGCAUCAGCCUGGACCGAUGGUUGACGUUCCUAAGCGCAGAACAGCCCUAUAAGAACGCCGCUCGGUGCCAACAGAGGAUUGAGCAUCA`, the bound/input enrichment was 0.0694 ratio.
`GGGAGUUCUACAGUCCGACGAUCCCCUCCCCGGGCCACCCACCCCUCCCGCUCCCAGCGGAGAGCAAGGUUUUCUUCUUAUUUCAUAGCAAAUAAGAAAAAUGUUCUACGCACAUUUUGUCCUCAGUAAACGAGGGCCUCUGGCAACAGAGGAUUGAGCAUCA` has a bound/input enrichment of 0.261 ratio.
With `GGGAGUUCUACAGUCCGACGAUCUGGCGCCUGCGCUCCCCACUCGUGUUUUUAAGUGUAUUUUUAUAAGAUACAUGUAUUUACAAUUGAGCUUUUGUUACAUAAUGCUGAAAACAUCUCUGAGAUUAUGAAAAAUGUUUCAAUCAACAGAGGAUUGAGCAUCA` the bound/input enrichment was 0.0882 ratio.
`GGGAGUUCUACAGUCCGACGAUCUUACCCGAGAACGAGGAUGAAUUGGAGAGCACCAACAGGCGCUACACCAAGAGAGACUGCAGCACUUUCCUCAGAACUAGUGAGACGGGCAUCGUGGACCAGGUCAUGGUCACUCUCAACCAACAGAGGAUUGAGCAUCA` gave a bound/input enrichment of 0.183 ratio.
The bound/input enrichment of `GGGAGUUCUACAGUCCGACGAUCGCUCCUCUUCCGCACUCAGCCUGGGGACACUGGGCUGGGACCAGAAUCCAGCUUUCUUUUAAAACUCUAUAUUUUUUUGUAUCCCGUGACAUUUCAUUUUUUUUAAAUAGUGUAUUUUUUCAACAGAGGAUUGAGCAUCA` is reported as 13.9 ratio.
`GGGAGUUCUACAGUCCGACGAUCUUAAUCCCCUUUACUGCUCCACCACUGCUCAUGGUAAUAACAAAGUCUUAUAUCCCCGUCCUAGCUUUCACUCAGAUGGCUUAUGGAGCCAGUUUCCUAGCUUUCUUGGGAGGGAUCAGACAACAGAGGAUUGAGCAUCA` gave a bound/input enrichment of 0.247 ratio.
With `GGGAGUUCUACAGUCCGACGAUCCAGCUGCAGACAGAAAAGGAUGAGAAGGAGCUGUAUAAGGUACAUUUGAAGAAUACAGAAAUAGAAAAUACCAAGCUUGUGUCAGAGAUACAGACUUUAAAGAAUUUAGAUGGGAACAAACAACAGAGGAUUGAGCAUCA` the bound/input enrichment was 2.62 ratio.
With `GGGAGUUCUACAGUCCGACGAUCCACACACUCUUCUGCGGGACCCUCAUCUUGCAGGCCCGAGCCUACGUGGGACCCCGUGUCCUGGCAGUGGUGACCCGCACAGGGUUCUGCACGGCAAAAGGGGGCCUGGUGAGCUCCAUCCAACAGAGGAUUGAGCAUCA` the bound/input enrichment was 0.0637 ratio.

Sample 4 — technique: DHFR PCA, deep sequencing; matrix: yeast; added: (+)-ABA 17 µM; reference: wild-type fitted maximum; direction: higher = stronger binding
Target: ABI1, truncated, D143A, DHFR fusion (Arabidopsis thaliana)
Notes: methotrexate growth selection, single substitutions
Starting sequence: PYL1, truncated, DHFR fusion (Arabidopsis thaliana); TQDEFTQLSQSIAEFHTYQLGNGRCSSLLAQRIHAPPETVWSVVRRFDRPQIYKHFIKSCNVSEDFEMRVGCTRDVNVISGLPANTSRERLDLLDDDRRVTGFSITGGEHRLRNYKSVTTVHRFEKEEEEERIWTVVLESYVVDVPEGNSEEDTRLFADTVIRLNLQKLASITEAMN; partner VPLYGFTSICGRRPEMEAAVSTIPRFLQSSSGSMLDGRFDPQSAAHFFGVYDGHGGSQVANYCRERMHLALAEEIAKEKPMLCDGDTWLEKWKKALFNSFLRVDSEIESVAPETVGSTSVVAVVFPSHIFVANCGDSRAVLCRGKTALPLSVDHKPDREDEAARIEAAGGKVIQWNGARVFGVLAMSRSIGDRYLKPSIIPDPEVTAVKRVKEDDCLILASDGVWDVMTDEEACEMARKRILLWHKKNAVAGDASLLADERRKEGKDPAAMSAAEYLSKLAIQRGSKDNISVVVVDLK
For `I57E`, “relative binding score” read 2.04%.
`I79A` — result for “relative binding score”: 76.9%.
For `N114W`, “relative binding score” read -18.5%.
`E151C` — result for “relative binding score”: 80.4%.
`L112E`: “relative binding score” 7.04%.
`A158S` — result for “relative binding score”: 51.9%.
Under “relative binding score”, `F103P` is recorded as -11.5%.
`D95F`: “relative binding score” 10%.
For `L8N`, “relative binding score” read 45.6%.
`D95H`: “relative binding score” 11.2%.
Under “relative binding score”, `Q7A` is recorded as 85.4%.
`F5E` — result for “relative binding score”: 71.5%.
For `T6G`, “relative binding score” read 84.6%.
For `P50C`, “relative binding score” read 13.4%.

Repeated from above (sample 3):
With `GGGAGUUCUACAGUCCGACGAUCUGGCGCCUGCGCUCCCCACUCGUGUUUUUAAGUGUAUUUUUAUAAGAUACAUGUAUUUACAAUUGAGCUUUUGUUACAUAAUGCUGAAAACAUCUCUGAGAUUAUGAAAAAUGUUUCAAUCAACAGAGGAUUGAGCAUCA` the bound/input enrichment was 0.0882 ratio.
`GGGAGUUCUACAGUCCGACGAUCUUACCCGAGAACGAGGAUGAAUUGGAGAGCACCAACAGGCGCUACACCAAGAGAGACUGCAGCACUUUCCUCAGAACUAGUGAGACGGGCAUCGUGGACCAGGUCAUGGUCACUCUCAACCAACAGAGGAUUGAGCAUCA` gave a bound/input enrichment of 0.183 ratio.
The bound/input enrichment of `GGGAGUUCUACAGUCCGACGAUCGCUCCUCUUCCGCACUCAGCCUGGGGACACUGGGCUGGGACCAGAAUCCAGCUUUCUUUUAAAACUCUAUAUUUUUUUGUAUCCCGUGACAUUUCAUUUUUUUUAAAUAGUGUAUUUUUUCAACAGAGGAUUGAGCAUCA` is reported as 13.9 ratio.
`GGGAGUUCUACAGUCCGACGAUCUUAAUCCCCUUUACUGCUCCACCACUGCUCAUGGUAAUAACAAAGUCUUAUAUCCCCGUCCUAGCUUUCACUCAGAUGGCUUAUGGAGCCAGUUUCCUAGCUUUCUUGGGAGGGAUCAGACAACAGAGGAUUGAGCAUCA` gave a bound/input enrichment of 0.247 ratio.
